Published values collected from several papers.
Numbered parts are unrelated; each lists some results of a single study. Substitutions count along the parent as printed.
Chain of UniProt O15294 (whole entry, looked up): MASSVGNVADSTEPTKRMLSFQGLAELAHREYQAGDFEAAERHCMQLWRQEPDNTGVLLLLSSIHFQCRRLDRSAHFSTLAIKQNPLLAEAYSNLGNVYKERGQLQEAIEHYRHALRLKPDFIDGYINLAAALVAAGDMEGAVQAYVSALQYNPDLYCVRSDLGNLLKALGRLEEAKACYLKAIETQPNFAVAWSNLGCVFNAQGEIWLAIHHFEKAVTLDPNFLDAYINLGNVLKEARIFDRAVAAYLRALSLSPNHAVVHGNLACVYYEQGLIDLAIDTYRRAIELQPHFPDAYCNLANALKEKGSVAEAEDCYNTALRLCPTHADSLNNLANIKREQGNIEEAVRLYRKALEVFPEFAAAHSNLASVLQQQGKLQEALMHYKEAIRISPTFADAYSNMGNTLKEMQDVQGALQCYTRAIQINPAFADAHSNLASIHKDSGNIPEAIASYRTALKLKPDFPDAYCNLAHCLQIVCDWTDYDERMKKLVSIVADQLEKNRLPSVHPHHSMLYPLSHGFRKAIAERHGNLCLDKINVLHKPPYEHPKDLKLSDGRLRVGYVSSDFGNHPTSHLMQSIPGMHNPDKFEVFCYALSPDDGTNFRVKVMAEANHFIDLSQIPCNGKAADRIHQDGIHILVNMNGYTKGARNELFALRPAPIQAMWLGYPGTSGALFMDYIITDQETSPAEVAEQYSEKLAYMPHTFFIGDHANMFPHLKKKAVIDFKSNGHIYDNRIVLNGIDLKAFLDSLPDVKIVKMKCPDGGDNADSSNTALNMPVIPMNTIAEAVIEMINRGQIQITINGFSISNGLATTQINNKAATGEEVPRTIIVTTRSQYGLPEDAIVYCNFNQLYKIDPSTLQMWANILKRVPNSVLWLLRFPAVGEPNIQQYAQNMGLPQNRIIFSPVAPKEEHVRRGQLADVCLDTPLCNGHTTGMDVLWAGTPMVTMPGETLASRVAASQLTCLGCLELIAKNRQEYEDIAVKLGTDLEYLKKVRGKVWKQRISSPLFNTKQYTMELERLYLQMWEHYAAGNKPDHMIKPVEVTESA

Series 1
Target: POU domain, class 6, transcription factor 1, POU and homeodomain (POU6F1, Homo sapiens, UniProt Q14863, residues 311-611)
Technique: protein-binding microarray
Molecule type: hairpin DNA
Medium: in vitro
Concentration: not given
Notes: whole hairpin DNA, median over replicate spots
Reference: not given
Reading: higher = stronger binding
All sequences stand within: GAGGCCA … TGGCCTCACACTCTT
Construct (chain): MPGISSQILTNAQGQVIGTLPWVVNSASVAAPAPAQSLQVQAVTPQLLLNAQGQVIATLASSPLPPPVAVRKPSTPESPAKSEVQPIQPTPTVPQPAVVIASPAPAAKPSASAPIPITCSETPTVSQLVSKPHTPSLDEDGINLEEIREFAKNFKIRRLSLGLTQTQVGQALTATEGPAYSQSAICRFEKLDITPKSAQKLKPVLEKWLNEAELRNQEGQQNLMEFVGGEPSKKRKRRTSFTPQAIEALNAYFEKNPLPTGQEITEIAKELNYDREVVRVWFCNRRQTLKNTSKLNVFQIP
Oligonucleotide	median fluorescence
TAGTGAGGTGCCTCCTGGCACCTCACTA	356 a.u.
TAATGAGGTGCCTCCTGGCACCTCATTA (5mC at 31)	1750 a.u.
TAATTAGCGGCCTCCTGGCCGCTAATTA (5mC at 15 27)	1650 a.u.
TAATGAGGCGCCTCCTGGCGCCTCATTA (5mC at 16)	2490 a.u.
TACGGAGGTGCCTCCTGGCACCTCCGTA (5mC at 10 32)	332 a.u.
TAATTAGGAGCCTCCTGGCTCCTAATTA	1610 a.u.
TAATGAGGAGCCTCCTGGCTCCTCATTA	2100 a.u.
CGATTAGGTGCCTCCTGGCACCTAATCG	357 a.u.

Series 2
Target: CCNB1, cyclin fold, Cln2 fusion (human)
Technique: yeast growth competition, sequencing
Medium: yeast
Notes: weak parent motif
Reference: not given
Reading: higher = stronger binding
Starting sequence: WEE1 docking peptide (human); HKTFRKLRLFDTP
Substitution	normalised enrichment score
L7C	1.53
R5A L7A	0.772
T3N	0.0753
H1N	0.56
F10E	-0.416
T12Y	0.478
T12S	0.764
R5D	0.539

Other studies, line by line
Substance	target	test	system	setting	scale	quantity	value
PhoQ, residues 284 288 289 292 302 303 HSYLQF	PhoP, residues 12 14 15 18 19 QYCSL (Escherichia coli, UniProt P23836)	Sort-seq, item: YFP reporter	E. coli	PhoQ-PhoP variant library, with: 10 µM Mg2+	reference: high Mg2+ state, higher = stronger signaling	fold induction	15.9
HRGQGDEEHWHRHQA	OGT (Homo sapiens, UniProt O15294)	binding, phage display NGS	peptide		reference: input library	minimum log2 enrichment ratio	2.57

Excerpt of the above (series 1):
Oligonucleotide	median fluorescence
TAATGAGGTGCCTCCTGGCACCTCATTA (5mC at 31)	1750 a.u.
TAATTAGCGGCCTCCTGGCCGCTAATTA (5mC at 15 27)	1650 a.u.
TAATGAGGCGCCTCCTGGCGCCTCATTA (5mC at 16)	2490 a.u.
